Results of several laboratories.
Lines come from different studies, so protocols differ. “And” joins repeats or separate records; there may be more than shown. ± marks the error that the study gave.

SMILES | test | system | setting | tissue uptake
CCCC[C@H](NC(=O)CN1CCC(NC(=O)CN2CCN(CC(=O)O)CCN(CC(=O)O)CCN(CC(=O)O)CC2)CC1)C(=O)N[C@H]1CC(=O)NCCCC[C@@H](C(N)=O)NC(=O)[C@H](Cc2c[nH]c3ccccc23)NC(=O)[C@H](CCCNC(=N)N)NC(=O)[C@@H](Cc2ccccc2)NC(=O)[C@H](Cc2c[nH]cn2)NC1=O [gallium-68 labelled] | – | C57BL/6J mice male B16-F10 tumour, fat | 2 h post injection, unblocked | 0.2 ± 0.1 %ID/g
N=C(N)NCCC[C@H](NC(=O)CON=C[C@H](F)[C@@H](O)[C@H](O)[C@H](O)CO)C(=O)NCC(=O)N[C@@H](CC(=O)O)C(=O)O [fluorine-18 labelled] | – | nude mice U-87 MG tumour, kidney | intravenous, 0.5 h | 1.95 ± 0.17 %ID/g
NC12CNCCNCC(NCc3ccc(CNC(=O)CCCC(=O)NCc4ccc(-c5nncnn5)cc4)cc3)(CNCCNC1)CNCCNC2.[64Cu+2] | – | athymic nude mice SW1222 xenograft, tumor | 4 h post injection, 24 h accumulation interval, with: huA33-TCO pretargeting | 5.6 %ID/g and 5.56 %ID/g
O=C([O-])c1cccc(CN(CCN(Cc2cn(Cc3ccccc3)nn2)Cc2cccc(C(=O)[O-])n2)Cc2cn(Cc3ccccc3)nn2)n1.[64Cu+2] | – | healthy athymic nude mice, skin | intravenous, 15 min | 2.52 %ID/g
O=C([O-])CN1CCN(CC(=O)[O-])CCN(CC(=O)NCCc2ccc3c(c2)C2C=CCC2C(c2cc4c(cc2Br)OCO4)N3)CCN(CC(=O)[O-])CC1.[111In+3] (stereo not shown) | – | mice with Hec50 tumour xenograft, small intestine | 2 h, with: G-1 5 µg blocking | 2.32 ± 0.76 %ID/g
CCCC[C@H](NC(=O)CNC(=O)CNC(=O)CN1CCN(CC(=O)O)CCN(CC(=O)O)CC1)C(=O)N[C@H]1CC(=O)NCCCC[C@@H](C(N)=O)NC(=O)[C@H](Cc2c[nH]c3ccccc23)NC(=O)[C@H](CCCNC(=N)N)NC(=O)[C@@H](Cc2ccccc2)NC(=O)[C@H](Cc2c[nH]cn2)NC1=O [gallium-67 labelled] | – | female C57 mice, B16/F1 melanoma, blood | intravenous, 0.037 MBq, 24 h | 0.55 ± 0.12 %ID/g
O=C(NCC1OC2CCC=CCCC2O1)c1ccc([18F])nc1 (stereo not shown) | – | female BALB/c nude mice, kidneys | intravenous, 60 min | 4.5 ± 0.7 %ID/g
O=C([O-])CN1CCN(CC(=O)[O-])CCN(CC(=O)[O-])CCN(CC(=O)[O-])CC1.[64Cu+2] | – | healthy athymic nude mice, small intestine | intravenous, 15 min | 1.53 %ID/g
CCCC[C@H](NC(=O)CNC(=O)CNC(=O)CN1CCN(CC(=O)O)CCN(CC(=O)O)CCN(CC(=O)O)CC1)C(=O)N[C@H]1CC(=O)NCCCC[C@@H](C(N)=O)NC(=O)[C@H](Cc2c[nH]c3ccccc23)NC(=O)[C@H](CCCNC(=N)N)NC(=O)[C@@H](Cc2ccccc2)NC(=O)[C@H](Cc2c[nH]cn2)NC1=O [gallium-67 labelled] | – | female C57 mice, B16/F1 melanoma, stomach | intravenous, 0.037 MBq, 24 h | 0.62 ± 0.23 %ID/g
CC(C)[C@H](NC(=O)[C@@H]1CCCN1C(=O)[C@H](CCCNC(=N)N)NC(=O)[C@H](CS)NC(=O)[C@H](Cc1c[nH]c2ccccc12)NC(=O)[C@H](CCCNC(=N)N)NC(=O)[C@@H](Cc1ccccc1)NC(=O)[C@H](Cc1c[nH]cn1)NC(=O)[C@H](CCC(=O)O)NC(=O)[C@H](CS)NC(=O)[C@H](CS)NC(=O)[C@@H]1CC(=O)N[C@@H](CCCNC(=N)N)C(=O)NCC(=O)N[C@@H](CC(=O)O)C(=O)N[C@H](Cc2ccc(O)cc2)C(=O)N1)C(N)=O [technetium-99m labelled] | – | C57 mice B16/F1 melanoma female, liver | iv, 2 h, with: NDP-MSH 10 µg co-injected | 1.21 ± 0.24 %ID/g
CCCC[C@@H]1NC(=O)[C@@H](NC(=O)[C@H](CCC(=O)O)NC(=O)CNC(=O)CN2CCN(CC(=O)O)CCN(CC(=O)O)CCN(CC(=O)O)CC2)CCCCNC(=O)C[C@@H](C(N)=O)NC(=O)[C@H](C(C)C)NC(=O)[C@@H]2CCCN2C(=O)[C@H](CCCNC(=N)N)NC(=O)CNC(=O)[C@H](Cc2c[nH]c3ccccc23)NC(=O)[C@H](CCCNC(=N)N)NC(=O)[C@@H](Cc2ccccc2)NC(=O)[C@H](Cc2c[nH]cn2)NC(=O)[C@H](CCC(=O)O)NC1=O [gallium-67 labelled] | – | C57 mice with B16/F1 melanoma, brain | intravenous, 24 h | 0.01 %ID/g
CN1C(=O)[C@@H](Cc2ccc(O)c(I)c2)NC(=O)CNC(=O)[C@H](Cc2ccc3ccccc3c2)NC(=O)[C@H](CCCNC(=N)N)NC(=O)[C@H]1CCCNC(=O)c1ccc(CNC(=O)CN2CCN(CC(=O)O)CCN(CC(=O)O)CCN(CC(=O)O)CC2)cc1 [lutetium-177 labelled] | refers to: 177Lu radioactivity | female CB-17 SCID mice, Daudi xenograft, skin | intravenous, 0.16 nmol per mouse, 6 h | 0.19 ± 0.02 %ID/g
CC(C)[C@H](NC(=O)[C@@H]1CCCN1C(=O)[C@H](CCCNC(=N)N)NC(=O)[C@H](CS)NC(=O)[C@H](Cc1c[nH]c2ccccc12)NC(=O)[C@H](CCCNC(=N)N)NC(=O)[C@@H](Cc1ccccc1)NC(=O)[C@H](Cc1c[nH]cn1)NC(=O)[C@H](CCC(=O)O)NC(=O)[C@H](CS)NC(=O)[C@H](CS)NC(=O)CNC(=O)[C@@H]1CC(=O)N[C@@H](CCCNC(=N)N)C(=O)NCC(=O)N[C@@H](CC(=O)O)C(=O)N[C@H](Cc2ccc(O)cc2)C(=O)N1)C(N)=O [technetium-99m labelled] | – | C57 mice B16/F1 melanoma female, stomach | iv, 2 h, with: NDP-MSH 10 µg co-injected | 2.88 ± 0.66 %ID/g

A few entries again:
SMILES | test | system | setting | tissue uptake
CCCC[C@@H]1NC(=O)[C@@H](NC(=O)[C@H](CCC(=O)O)NC(=O)CNC(=O)CN2CCN(CC(=O)O)CCN(CC(=O)O)CCN(CC(=O)O)CC2)CCCCNC(=O)C[C@@H](C(N)=O)NC(=O)[C@H](C(C)C)NC(=O)[C@@H]2CCCN2C(=O)[C@H](CCCNC(=N)N)NC(=O)CNC(=O)[C@H](Cc2c[nH]c3ccccc23)NC(=O)[C@H](CCCNC(=N)N)NC(=O)[C@@H](Cc2ccccc2)NC(=O)[C@H](Cc2c[nH]cn2)NC(=O)[C@H](CCC(=O)O)NC1=O [gallium-67 labelled] | – | C57 mice with B16/F1 melanoma, brain | intravenous, 24 h | 0.01 %ID/g
